Measured values collected from several papers.
Numbered parts are unrelated; each lists some results of a single study.
UniProt P08581, sequence (whole entry, looked up): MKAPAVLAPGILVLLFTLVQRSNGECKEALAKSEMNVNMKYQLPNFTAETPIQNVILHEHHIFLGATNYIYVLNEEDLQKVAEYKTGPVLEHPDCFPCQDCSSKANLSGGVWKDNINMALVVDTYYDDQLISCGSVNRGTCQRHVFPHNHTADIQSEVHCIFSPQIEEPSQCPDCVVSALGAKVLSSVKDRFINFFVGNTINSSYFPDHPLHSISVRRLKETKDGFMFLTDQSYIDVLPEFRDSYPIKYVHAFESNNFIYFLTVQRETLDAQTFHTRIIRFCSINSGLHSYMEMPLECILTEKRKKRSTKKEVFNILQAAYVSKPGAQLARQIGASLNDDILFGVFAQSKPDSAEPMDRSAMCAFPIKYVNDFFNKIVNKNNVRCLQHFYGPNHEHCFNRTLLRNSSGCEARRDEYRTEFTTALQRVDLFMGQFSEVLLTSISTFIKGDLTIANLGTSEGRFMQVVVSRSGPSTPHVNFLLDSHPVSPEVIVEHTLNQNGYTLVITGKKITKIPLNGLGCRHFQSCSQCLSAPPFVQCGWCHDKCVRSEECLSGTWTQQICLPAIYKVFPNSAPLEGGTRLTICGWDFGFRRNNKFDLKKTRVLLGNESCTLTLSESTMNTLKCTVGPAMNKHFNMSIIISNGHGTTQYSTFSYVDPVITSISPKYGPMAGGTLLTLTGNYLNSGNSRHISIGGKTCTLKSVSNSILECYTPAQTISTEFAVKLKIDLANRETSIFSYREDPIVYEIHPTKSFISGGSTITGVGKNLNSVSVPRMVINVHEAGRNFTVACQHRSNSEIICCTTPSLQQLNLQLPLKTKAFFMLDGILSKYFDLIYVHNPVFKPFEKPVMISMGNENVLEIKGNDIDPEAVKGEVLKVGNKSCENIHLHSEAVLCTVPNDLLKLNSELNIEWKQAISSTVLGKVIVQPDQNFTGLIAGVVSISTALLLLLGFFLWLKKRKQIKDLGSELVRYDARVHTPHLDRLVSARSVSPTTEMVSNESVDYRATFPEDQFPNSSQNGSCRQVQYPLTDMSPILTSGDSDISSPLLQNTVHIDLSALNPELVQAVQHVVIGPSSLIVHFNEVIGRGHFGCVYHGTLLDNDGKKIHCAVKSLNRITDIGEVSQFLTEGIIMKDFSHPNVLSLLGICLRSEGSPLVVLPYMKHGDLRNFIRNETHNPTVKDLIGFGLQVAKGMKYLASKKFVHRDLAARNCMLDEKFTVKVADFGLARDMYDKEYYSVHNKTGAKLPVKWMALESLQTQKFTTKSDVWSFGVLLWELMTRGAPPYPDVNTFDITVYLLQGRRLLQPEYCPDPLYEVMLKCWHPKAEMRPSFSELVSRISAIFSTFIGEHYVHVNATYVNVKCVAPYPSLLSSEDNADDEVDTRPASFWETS
UniProt P49336, sequence (whole entry, looked up): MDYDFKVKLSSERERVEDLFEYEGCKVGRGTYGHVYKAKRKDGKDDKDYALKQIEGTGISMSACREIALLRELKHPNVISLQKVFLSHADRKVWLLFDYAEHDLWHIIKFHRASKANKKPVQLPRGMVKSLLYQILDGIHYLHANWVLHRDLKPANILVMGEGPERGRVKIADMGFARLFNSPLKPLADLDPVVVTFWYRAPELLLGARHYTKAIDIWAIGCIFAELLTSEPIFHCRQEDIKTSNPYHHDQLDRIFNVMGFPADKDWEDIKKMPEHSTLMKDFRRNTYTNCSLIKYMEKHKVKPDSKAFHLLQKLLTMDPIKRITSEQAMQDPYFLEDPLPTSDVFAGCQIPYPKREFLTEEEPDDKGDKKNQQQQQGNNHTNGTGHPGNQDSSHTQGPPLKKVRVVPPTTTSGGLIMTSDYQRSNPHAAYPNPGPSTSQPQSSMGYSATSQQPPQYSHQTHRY
UniProt Q9Y243, sequence (whole entry, looked up): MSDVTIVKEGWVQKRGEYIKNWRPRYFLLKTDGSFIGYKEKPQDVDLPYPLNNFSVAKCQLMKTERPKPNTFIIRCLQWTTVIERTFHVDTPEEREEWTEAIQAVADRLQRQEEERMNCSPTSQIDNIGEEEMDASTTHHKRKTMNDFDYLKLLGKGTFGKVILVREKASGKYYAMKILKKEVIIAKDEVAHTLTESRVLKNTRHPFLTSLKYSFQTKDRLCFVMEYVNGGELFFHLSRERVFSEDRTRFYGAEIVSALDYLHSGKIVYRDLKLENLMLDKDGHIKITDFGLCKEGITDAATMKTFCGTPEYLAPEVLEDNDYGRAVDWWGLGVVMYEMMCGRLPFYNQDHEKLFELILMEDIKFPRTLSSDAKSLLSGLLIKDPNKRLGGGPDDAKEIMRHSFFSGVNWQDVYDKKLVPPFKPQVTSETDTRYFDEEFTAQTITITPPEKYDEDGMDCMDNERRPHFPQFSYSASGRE
UniProt P19525, sequence (whole entry, looked up): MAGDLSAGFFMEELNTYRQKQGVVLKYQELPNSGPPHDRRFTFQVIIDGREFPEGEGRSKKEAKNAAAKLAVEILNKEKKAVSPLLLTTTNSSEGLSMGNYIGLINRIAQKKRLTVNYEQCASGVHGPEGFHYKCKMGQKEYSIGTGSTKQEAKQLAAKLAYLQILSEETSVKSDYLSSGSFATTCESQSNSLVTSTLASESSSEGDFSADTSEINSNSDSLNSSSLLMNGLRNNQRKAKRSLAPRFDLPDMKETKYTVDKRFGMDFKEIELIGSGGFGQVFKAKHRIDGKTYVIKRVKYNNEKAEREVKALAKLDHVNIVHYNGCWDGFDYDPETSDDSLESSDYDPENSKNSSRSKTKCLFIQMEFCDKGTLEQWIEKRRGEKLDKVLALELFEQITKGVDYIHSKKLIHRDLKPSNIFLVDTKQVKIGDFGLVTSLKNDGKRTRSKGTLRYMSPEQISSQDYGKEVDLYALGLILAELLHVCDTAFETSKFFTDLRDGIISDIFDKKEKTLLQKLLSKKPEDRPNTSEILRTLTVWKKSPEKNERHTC
UniProt Q00532, sequence (whole entry, looked up): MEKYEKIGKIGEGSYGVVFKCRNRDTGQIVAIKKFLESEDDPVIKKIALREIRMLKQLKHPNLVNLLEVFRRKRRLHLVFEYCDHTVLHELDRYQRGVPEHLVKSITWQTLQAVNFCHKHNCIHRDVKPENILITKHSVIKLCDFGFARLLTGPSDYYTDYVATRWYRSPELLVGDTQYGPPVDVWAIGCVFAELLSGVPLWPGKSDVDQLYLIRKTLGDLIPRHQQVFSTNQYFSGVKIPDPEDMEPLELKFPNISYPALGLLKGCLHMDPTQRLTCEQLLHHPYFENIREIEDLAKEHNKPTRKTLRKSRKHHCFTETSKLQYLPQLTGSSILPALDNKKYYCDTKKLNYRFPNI

Series 1 — species: mouse; sample: microsomes or S9; concentration: 2 µM; time: 0.5 h; measurement: remaining compound
CCC(CC)C(=O)N1CCN(c2cc(-n3nc(C)cc3C)ncn2)CC1: 0.0793%
CCN(CC)/C(=N\S(=O)(=O)c1ccccc1C)c1ccccc1: 0.109%
CN(C)S(=O)(=O)c1cc2c(cc1N1CCN(c3ccccn3)CC1)Oc1ccccc1NC2=O: 7.07%
Clc1ccc2nc(N3CCc4ccccc4C3)sc2c1: 11.8%
Cc1cc(-c2ccc(S(=O)(=O)N3CCOc4ccccc43)s2)n[nH]1: 0.777%
CCCc1nnc(-c2cc3ccccc3n2Cc2ccccc2)o1: 0.0177%

Series 2 — read-out: enzyme activity; mode: inhibitor; concentration: 0.5 µM; relative to: control; measurement: remaining activity
Target: Platelet-derived growth factor receptor alpha (PDGFRA, Homo sapiens, UniProt P16234)
UniProt P16234, sequence (whole entry, looked up): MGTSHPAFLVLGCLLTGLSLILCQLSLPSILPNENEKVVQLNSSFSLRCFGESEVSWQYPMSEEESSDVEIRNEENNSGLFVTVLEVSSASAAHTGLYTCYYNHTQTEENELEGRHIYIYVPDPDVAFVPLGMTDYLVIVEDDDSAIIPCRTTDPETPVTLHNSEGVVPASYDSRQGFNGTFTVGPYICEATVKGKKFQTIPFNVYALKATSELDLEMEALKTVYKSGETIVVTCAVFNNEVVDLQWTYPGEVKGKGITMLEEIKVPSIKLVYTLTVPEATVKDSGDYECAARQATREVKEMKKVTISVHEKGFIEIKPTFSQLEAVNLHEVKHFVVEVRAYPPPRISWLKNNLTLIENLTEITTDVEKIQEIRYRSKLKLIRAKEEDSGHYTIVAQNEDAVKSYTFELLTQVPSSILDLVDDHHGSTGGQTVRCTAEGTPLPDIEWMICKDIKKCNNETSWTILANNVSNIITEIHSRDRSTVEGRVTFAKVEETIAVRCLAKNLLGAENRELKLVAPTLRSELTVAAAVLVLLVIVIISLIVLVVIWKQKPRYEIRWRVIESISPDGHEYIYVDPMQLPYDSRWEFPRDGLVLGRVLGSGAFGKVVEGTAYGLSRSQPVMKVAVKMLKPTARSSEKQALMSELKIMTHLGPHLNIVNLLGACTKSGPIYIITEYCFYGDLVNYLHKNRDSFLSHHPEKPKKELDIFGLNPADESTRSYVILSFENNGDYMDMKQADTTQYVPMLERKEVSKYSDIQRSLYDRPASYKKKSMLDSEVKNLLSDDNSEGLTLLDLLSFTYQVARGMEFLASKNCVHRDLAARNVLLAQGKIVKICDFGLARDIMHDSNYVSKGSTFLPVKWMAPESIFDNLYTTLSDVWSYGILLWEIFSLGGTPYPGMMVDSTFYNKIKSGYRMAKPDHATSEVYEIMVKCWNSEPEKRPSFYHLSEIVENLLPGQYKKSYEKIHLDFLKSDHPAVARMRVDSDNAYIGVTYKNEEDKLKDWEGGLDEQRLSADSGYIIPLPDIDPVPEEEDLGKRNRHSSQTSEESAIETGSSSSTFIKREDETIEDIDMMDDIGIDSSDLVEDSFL
Cc1cc2ncc(-c3ccccc3)nc2cc1C: 95.4%
CN(C)C[C@H]1CCn2c(c(C3=C(c4cn(C)c5ccccc45)C(=O)NC3=O)c3ccccc32)C1: 93.1%
CCOc1nc(NC(=O)Cc2cc(OC)ccc2OC)cc(N)c1C#N: 97.1%
O=C(Nc1cccc(Nc2nccc(Nc3cccc(C(F)(F)F)c3)n2)c1)C1CC1: 89.3%
Cn1nc2c3c(cccc31)C(=O)c1ccccc1-2: 97.6%
O=C(NC(NC(=S)Nc1ccc(F)c([N+](=O)[O-])c1)C(Cl)(Cl)Cl)C(c1ccccc1)c1ccccc1 (stereo not drawn): 100%
COc1cc2ncnc(Nc3cccc(Cl)c3)c2cc1OC: 93.3%
N#C/C(=C\c1ccc(O)c(O)c1)C(=O)NCc1ccccc1: 110%
Cc1cn(-c2cc(NC(=O)c3ccc(C)c(Nc4nccc(-c5cccnc5)n4)c3)cc(C(F)(F)F)c2)cn1: 18.1%
CCN(CC)C(=O)c1ccc(Nc2nc(OCC3CCCCC3)c3[nH]cnc3n2)cc1: 66.6%
O=c1cc(-c2cccc3c2Sc2ccccc2S3)oc(N2CCOCC2)c1: 102%
Ic1cccc(CSc2nnc(-c3ccncc3)o2)c1: 90.1%
CCN(CC)CCNC(=O)c1c(C)[nH]c(/C=C2\C(=O)Nc3ccc(Cl)cc32)c1C: 25.9%
N#Cc1c(NC(=O)c2cccc3ccccc23)sc2c1CCCC2: 101%

Series 3 — mode: agonist; measurement: EC50
Target: Beta-1 adrenergic receptor (ADRB1, Homo sapiens, UniProt P08588)
UniProt P08588, sequence (whole entry, looked up): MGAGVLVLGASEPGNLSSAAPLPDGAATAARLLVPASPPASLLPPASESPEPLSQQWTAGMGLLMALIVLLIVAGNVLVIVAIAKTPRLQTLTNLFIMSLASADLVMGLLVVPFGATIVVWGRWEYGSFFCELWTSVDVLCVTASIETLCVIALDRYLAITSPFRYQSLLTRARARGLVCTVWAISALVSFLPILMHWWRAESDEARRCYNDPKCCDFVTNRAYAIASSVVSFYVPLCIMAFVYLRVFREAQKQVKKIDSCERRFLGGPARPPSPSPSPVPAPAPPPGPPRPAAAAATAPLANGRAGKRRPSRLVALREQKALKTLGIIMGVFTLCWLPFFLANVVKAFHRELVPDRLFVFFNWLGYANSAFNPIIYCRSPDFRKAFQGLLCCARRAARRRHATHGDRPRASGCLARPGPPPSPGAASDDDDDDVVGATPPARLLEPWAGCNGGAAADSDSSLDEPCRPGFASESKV
COc1ccc2[nH]cc(C3=CCN(c4ncnc5ccccc45)CC3)c2c1: 35.5 µM
O=C1OC2(c3ccc(O)cc3Oc3cc(O)ccc32)c2cccc(N=C=S)c21: 22.4 µM
O=C(Nc1cccc(-n2cnnn2)c1)c1cc2c(F)cccc2s1: ≥ 100 µM
Cc1noc(C)c1-c1cnc(Nc2cccc(C(F)(F)F)c2)c2c1CCO2: ≥ 100 µM
Nc1nc2c(ncn2C2OC3COP(=O)(O)OC3C2O)c(=O)[nH]1 (stereo not drawn): ≥ 100 µM
CCN(CC)c1ccc(C(=C2C=CC(=[N+](CC)CC)C=C2)c2cc(S(=O)(=O)O)ccc2S(=O)(=O)[O-])cc1: 25.1 µM
O=c1cc(-c2cnccn2)oc2c(-c3cn[nH]c3)nccc12: ≥ 100 µM

Series 4 — read-out: cell-free assay; technique: competition with immobilised ligand; concentration: 0.1 µM; measurement: remaining binding
SMILES: CNC(=O)c1ccc(Nc2ncc(C(F)(F)F)c(NCc3nccnc3N(C)S(C)(=O)=O)n2)cc1
AKT3 (Homo sapiens, UniProt Q9Y243): 36%
EIF2AK2 (Homo sapiens, UniProt P19525): 100%
CDKL1 (Homo sapiens, UniProt Q00532): 82%
GRK2 (Homo sapiens, UniProt P25098): 89%
MET (Homo sapiens, UniProt P08581): 66%
CDK8 (Homo sapiens, UniProt P49336): 50%

A few entries again (series 3):
Nc1nc2c(ncn2C2OC3COP(=O)(O)OC3C2O)c(=O)[nH]1 (stereo not drawn): ≥ 100 µM
O=c1cc(-c2cnccn2)oc2c(-c3cn[nH]c3)nccc12: ≥ 100 µM
O=C1OC2(c3ccc(O)cc3Oc3cc(O)ccc32)c2cccc(N=C=S)c21: 22.4 µM
Cc1noc(C)c1-c1cnc(Nc2cccc(C(F)(F)F)c2)c2c1CCO2: ≥ 100 µM
